# Results from different studies.
# Lines come from different studies, so protocols differ. ± gives the spread as reported.
SMILES,test,system,setting,how to read,measurement,value
COc1cccc(C=NCCCN(C)CCN(C)CCCN=Cc2cccc(OC)c2[O-])c1[O-].[67Ga+3],,rat,"intravenous, 2 h",relative to: heart over blood,tissue uptake ratio,54 ± 10
O=C(O)C1CN(Cc2ccc(-c3noc(-c4ccc(OCC[18F])c(C(F)(F)F)c4)n3)cc2)C1,,"male Sprague-Dawley rat, spleen","intravenous, 30 min",,tissue uptake,0.282 ± 0.03 %ID/g
OCc1cn(Cc2ccc(-c3noc(-c4ccc(OCC[18F])c(C(F)(F)F)c4)n3)cc2)nn1,,"Lewis rat, female, brain","intravenous, 2 h",,tissue uptake,0.61 ± 0.05 %ID/g
OC1(C(F)(F)F)CCN(c2nc(Nc3ccnc(C(F)(F)F)c3)nc(-c3cccc(C(F)(F)F)n3)n2)C1 (stereo not drawn),,"Sprague-Dawley rat, both sexes","oral, 10 mg/kg",relative to: bone marrow over brain,tissue concentration ratio,~15.7 fold
CCN(CC)c1ccc2c(-c3ccccc3C(=O)OCCOCCOCC[18F])c3ccc(=[N+](CC)CC)cc-3oc2c1,,"rat, liver",60 min,,tissue uptake,0.25 ± 0.03 %ID/g
COc1cccc([O-])c1C=NCCCN(C)CCN(C)CCCN=Cc1c([O-])cccc1OC.[67Ga+3],,rat,"intravenous, 2 h",relative to: heart over liver,tissue uptake ratio,7.2 ± 1.9
C[C@H](CN(C)Cc1ccccc1)NC(=O)c1ccc(-c2noc(C(F)(F)[18F])n2)cc1,PET imaging,"female Sprague-Dawley rats, brain","intravenous, 60 min",,tissue uptake,1.11 ± 0.26 SUV
COc1cc([O-])c(C=NCCCN(C)CCN(C)CCCN=Cc2c([O-])cc(OC)cc2OC)c(OC)c1.[67Ga+3],,rat,"intravenous, 1 min",relative to: heart over liver,tissue uptake ratio,0.33 ± 0.02
CC/C=C\C/C=C\C/C=C\C/C=C\C/C=C\CCCCOC(CC)C(=O)O (stereo not drawn),14C radiolabel,"Wistar rats male, muscle","oral, 100 mg/kg, 4 h",,tissue concentration,10 µg/g

# A few entries again:
SMILES,test,system,setting,how to read,measurement,value
COc1cccc(C=NCCCN(C)CCN(C)CCCN=Cc2cccc(OC)c2[O-])c1[O-].[67Ga+3],,rat,"intravenous, 2 h",relative to: heart over blood,tissue uptake ratio,54 ± 10
